Published values from different studies.
Each line is one published result; not all experiments were run side by side. “And” joins repeats or separate records; there may be more than shown. Numbers after ± are the reported error. Values after ≈ are worked out from the molar mass of the structure shown.

SMILES | target or system | assay | test system | conditions | scale | measurement | value
O=C1C(Cl)=C(n2ccnc2)C(=O)c2ccccc21 | Aspergillus niger |  | ITCC 7787 | 10 µg/mL |  | zone of inhibition | 10 mm
COc1cc(/C=N/Nc2ncnc3c2cnn3C(C)C)ccc1O | Trypanosoma brucei |  |  | unit not given | reference: pEC50 T. brucei minus pTC50 HepG2 | selectivity | > 2
COc1ccc(Nc2cnnc3cc(-c4cnc(N5CCCN(C)CC5)nc4)ccc23)cc1Cl | Trypanosoma brucei | cell growth |  |  |  | EC50 | 260 ± 70 nM
OC(Cn1cncn1)(Cn1cncn1)c1ccc(F)cc1F | Aspergillus niger |  | ITCC 7787 | 10 µg/mL |  | zone of inhibition | 23 mm
COc1ccc2c(c1OC)C(CO)N(C)c1c-2ccc2cc3c(cc12)OCO3 (stereo not shown) | Apostichopus japonicus | cell viability |  |  |  | optimal concentration | 30 µM
C[C@]1(CO)[C@H]2CC[C@@H]3CN(Cc4ccc(F)c(Cl)c4)[C@@H](C4=CCOC4=O)C[C@H]3[C@]2(C)CC[C@H]1O | Human coronavirus 229E | cytopathic effect | MRC5 | 25 µM, corrected for cytotoxicity |  | inhibition | 10%
O=c1c(O)c(-c2ccc(O)cc2)oc2cc(O[C@@H]3O[C@H](CO)[C@@H](O)[C@H](O)[C@H]3O)cc(O)c12 | Streptococcus mutans |  | ATCC 700610 |  |  | MBC | 400 µg/mL (≈ 892 µM)
C[n+]1cc(NC(=O)c2ccc3ccc4ccc(C(=O)Nc5cc6ccccc6[n+](C)c5)nc4c3n2)cc2ccccc21 | Trypanosoma brucei | RNA-seq | Lister 427 bloodstream form | 2 × EC50, 4 h, log2 FC 1, FDR 0.05 | reference: untreated | differentially expressed genes | 294 genes
Br.CN(C)c1nc(=Nc2cccc(Cl)c2)ss1 | Mus musculus | gene silencing, high-content imaging | LDR reporter GFP cells | retest run 2 |  | maximal activity | 71%
CCOC(=O)c1cnc2c([N+](=O)[O-])cc(C(F)(F)F)cc2c1NCc1ccc(C(F)(F)F)cc1 | Trypanosoma brucei brucei | resazurin viability | Lister 427, bloodstream form |  | reference: HEK293 CC50 over T. brucei IC50 | selectivity ratio | ~3
CC[C@@H]1C(=O)N(C)c2cnc(Nc3ccc(C(=O)N[C@H]4CC[C@H](N5CCN(CC6CC6)CC5)CC4)cc3OC)nc2N1C(C)C | Trypanosoma brucei | cell growth |  |  |  | EC50 | > 3000 nM
Cc1cc(N2CCN(c3ccc([N+](=O)[O-])c4cccnc34)CC2)c2ccccc2n1 | Mus musculus | gene silencing, high-content imaging | LDR reporter GFP cells | retest run 2 |  | maximal activity | 30%
NS(=O)(=O)c1cccc(-c2ccc(C3CCCCC3)cc2)c1 |  | hepatocyte stability | cryopreserved rat hepatocytes | 1 µM |  | hepatic clearance | 34 mL/min/kg
O=c1[nH]c(CCl)nc2scc(-c3ccc(F)cc3)c12 | Trypanosoma brucei brucei |  | 449 Lister 427 bloodstream form | 24 h | reference: EC50 HEK293 over EC50 T. brucei | selectivity index | 3 ± 0.8
O=C1OC[C@H]2OC(O)[C@H](O)[C@@H](O)[C@@H]2OC(=O)c2cc(O)c(O)c(O)c2-c2c(O)c(O)c3oc(=O)c4c(c(O)c(O)c5oc(=O)c2c3c54)-c2c1cc(O)c(O)c2O (mixture of isomers) | Streptococcus mutans |  |  | MIC, first 15 min, together with: glucose 1% |  | initial rate of glycolytic pH drop | 0.032 pH units/min
CC1(C)OC[C@@]2(C)[C@H]3CC[C@@H]4CN(Cc5cccs5)[C@@H](C5=CCOC5=O)C[C@H]4[C@]3(C)CC[C@H]2O1 | Human coronavirus 229E | cytopathic effect | MRC5 | 25 µM, corrected for cytotoxicity |  | inhibition | 39.3%
CC(C)C(=O)N1CCN(c2ccc(NC(=O)c3ccc([N+](=O)[O-])o3)cc2Cl)CC1 | Mus musculus | gene silencing, high-content imaging | LDR reporter GFP cells | retest run 2 |  | maximal activity | 99%
O=C(NCCN1CCCC1=O)c1ccc([C@H]2[C@@H](F)[C@@H](F)C[C@@H](F)[C@H]2F)cc1 |  | hepatocyte stability | cryopreserved human hepatocytes | 1 µM |  | hepatic clearance | 6.2 mL/min/kg
[O-][S+]1CCN(Cc2ccc(-c3ccc4ncnc(Nc5ccc(OCc6cccc(F)c6)c(Cl)c5)c4c3)o2)CC1 | Trypanosoma brucei |  |  | unit not given | reference: pEC50 T. brucei minus pTC50 HepG2 | selectivity | > 1.7
CC1(C)OC[C@@]2(C)[C@H]3CC[C@@H]4CN(Cc5ccco5)[C@@H](C5=CCOC5=O)C[C@H]4[C@]3(C)CC[C@H]2O1 | Human coronavirus 229E | cytopathic effect | MRC5 | 25 µM, corrected for cytotoxicity |  | inhibition | 20.4%
Cn1cc(-c2ccc(-c3cncc(Cl)c3N3CCC4(CCNC4=O)CC3)cc2)cn1 | COLO 205 | gene expression, microarray, item: LAMP3 mRNA |  | concentration not given, 2 h | reference: untreated cells | log2 fold change | 1.82
COC(=O)[C@@H](NCc1cc2ccccc2nc1OCc1ccccc1)C(C)C | Pseudomonas aeruginosa |  |  | 128 µg/mL, without pentamidine | reference: control | growth | 97.1%
Cc1[nH]c2ccccc2c1-c1csc(-c2c[nH]c3ccccc23)n1 | Human papillomavirus 16 | viral genome amplification | differentiated W12E |  |  | IC50 | ~5000 nM
COc1cc2c(cc1Nc1nc(Nc3ccsc3C(N)=O)c3cc[nH]c3n1)N(C(=O)CN(C)C)CCC2(C)C | Trypanosoma brucei |  |  | unit not given | reference: pEC50 T. brucei minus pTC50 HepG2 | selectivity | 1.5
O=c1[nH]c(CCl)nc2scc(-c3ccccc3)c12 | Trypanosoma brucei brucei |  | 449 Lister 427 bloodstream form | 24 h | reference: EC50 HEK293 over EC50 T. brucei | selectivity index | 8.2 ± 4.2
CCCCCCCCCC(=O)N[C@@H](Cc1c[nH]c2ccccc12)C(=O)N[C@H](CC(N)=O)C(=O)N[C@@H](CC(=O)O)C(=O)N[C@@H]1C(=O)NCC(=O)N[C@@H](CCCN)C(=O)N[C@@H](CC(=O)O)C(=O)N[C@H](C)C(=O)N[C@@H](CC(=O)O)C(=O)NCC(=O)N[C@H](CO)C(=O)N[C@@H]([C@H](C)CC(=O)O)C(=O)N[C@@H](CC(=O)c2ccccc2N)C(=O)O[C@@H]1C | Staphylococcus aureus |  | SH1000 | together with: sphingomyelin, molar ratio 1 |  | MIC | 1 µg/mL

SMILES | target or system | assay | test system | conditions | scale | measurement | value
CCn1c(=O)c(-c2cc[nH]n2)cc2c(C)nc(N)nc21 | Enterovirus A71 | viral replication, plaque |  | 4 µM |  | plaque formation decrease | ~90%
Cc1ccc(/C=[N+](\[O-])c2ccc(N(C)C)cc2)c2nsnc12 | Mus musculus | gene silencing, high-content imaging | LDR reporter GFP cells | retest run 2 |  | maximal activity | 41%
CC(=Nc1ccc(N=Cc2cnccn2)cc1)N(C)C | Necator americanus |  | infected hamsters, small intestine | oral, 50 mg/kg single, 6 h |  | worm count | 0.3 ± 0.3
Cc1cc(Nc2ccc(S(F)(F)(F)(F)F)cc2)n2nc(C(C)(F)F)nc2n1 | Plasmodium falciparum | microscopy | infected human patients | dose not given |  | parasite clearance lag phase | ≤ 40 h
CC(=O)OC[C@@]1(C)[C@H]2CC[C@@H]3CN(Cc4ccc([N+](=O)[O-])cc4)[C@@H](C4=CCOC4=O)C[C@H]3[C@]2(C)CC[C@H]1OC(C)=O | Human coronavirus 229E | cytopathic effect | MRC5 | 25 µM, corrected for cytotoxicity |  | inhibition | 46.3%
CC(C)C[C@H](NC(=O)C[C@H](O)[C@H](CC(C)C)NC(=O)[C@H](Cc1c[nH]cn1)NC(=O)CNC(=O)[C@@H](NC(=O)[C@H](C)NC(=O)[C@H](Cc1c[nH]c2ccccc12)NC(=O)[C@H](CCC(N)=O)NC(=O)[C@@H](Cc1ccccc1)NC(=O)COCCOCCNC(=O)CCC(C(=O)O)N1CCN(CC(=O)O)CCN(CC(=O)O)CCN(CC(=O)O)CC1)C(C)C)C(N)=O (stereo partly shown) [lutetium-177 labelled] |  |  | BALB/c nu/nu mice, liver | intravenous, 250 pmol, 1 h, together with: PA 300 µg |  | tissue uptake | 0.39 ± 0.04 %ID/g
CN1CCN(Cc2ccc(-c3cc4ncnc(Nc5ccc(OCc6cccc(F)c6)c(Cl)c5)c4s3)o2)CC1 | Trypanosoma brucei |  |  | unit not given | reference: pEC50 T. brucei minus pTC50 HepG2 | selectivity | 0.9
N=C(N)c1ccc(OCc2cccc(COc3ccc(C(=N)N)cc3)c2)cc1 | Escherichia coli | checkerboard | mcr-2 polymyxin-resistant | concentration not given, 20 h, together with: rifampicin |  | MIC of compound in combination | 6.25 µg/mL
CCn1c(-c2nonc2N)nc2c(C#CC(C)(C)O)nc(OC[C@@H](N)c3ccccc3)cc21 | Trypanosoma brucei |  |  | unit not given | reference: pEC50 T. brucei minus pTC50 HepG2 | selectivity | 1.4
CN[C@H](CC(C)C)C(=O)N[C@H]1C(=O)N[C@@H](CC(N)=O)C(=O)N[C@H]2C(=O)N[C@H]3C(=O)N[C@H](C(=O)N[C@H](C(=O)O)c4cc(O)cc(O)c4-c4cc3ccc4O)[C@H](O)c3ccc(c(Cl)c3)Oc3cc2cc(c3O[C@@H]2O[C@H](CO)[C@@H](O)[C@H](O)[C@H]2O[C@H]2C[C@](C)(N)[C@H](O)[C@H](C)O2)Oc2ccc(cc2Cl)[C@H]1O | Staphylococcus aureus |  | MRSA, 10 isolates | serum 25% |  | MIC50 | 4 µg/mL (≈ 2.76 µM)
[H]/N=C(\N/C(=N/[H])NCCCCCCNC(=N)NC(=N)Nc1ccc(Cl)cc1)Nc1ccc(Cl)cc1 | Streptococcus mutans |  | BHI agar | 500 µg/disc |  | zone of inhibition | 18.5 ± 2 mm
N=C(N)c1ccc(OCc2ccc(-c3ccccc3)cc2COc2ccc(C(=N)N)cc2)cc1 | Escherichia coli | checkerboard | 552100 clinical isolate | unit not given, together with: rifampicin | lower = stronger synergy | FICI | 0.047
CCc1nc2[nH]c(=O)n(O)c(=O)c2s1 | Digitaria adscendens |  |  | 750 g/ha, 21 days, post-emergence, glasshouse pot |  | growth inhibition | 0%
CC(=O)NC[C@H]1CN(c2ccc(N3CCOCC3)c(F)c2)C(=O)O1 | Staphylococcus aureus | broth microdilution | methicillin-susceptible isolates |  |  | MIC50 | 0.5 µg/mL (≈ 1.48 µM)
CC(C)CCN1C[C@H]2CC[C@@H]3[C@]4(C)COC(C)(C)O[C@@H]4CC[C@@]3(C)[C@@H]2C[C@@H]1C1=CCOC1=O | Human coronavirus 229E | cytopathic effect | MRC5 | 25 µM, corrected for cytotoxicity |  | inhibition | 10.3%
NS(=O)(=O)c1ccc(N/C=C2\C(=O)Nc3ccc4ncsc4c32)cc1 | Trypanosoma brucei |  |  | unit not given | reference: pEC50 T. brucei minus pTC50 HepG2 | selectivity | > 2.5
CC(C)n1ncc2c(C(=O)NCC3(C)CNC3)cc(C3CC3)nc21 | Enterovirus D68 | cytopathic effect | RD, US/IL/14-18956 | 5 nM |  | cell protection | -0.844% and -1.27%
COc1ccc(-c2cc(-c3ccccc3)nc(SCC(=O)Nc3nccs3)c2C#N)cc1 | Mus musculus | gene silencing, high-content imaging | LDR reporter GFP cells | retest run 2 |  | maximal activity | 42%
CC(=O)N1CCC(C(=O)N2CCN3C(=O)c4cc(-c5ccccc5)ccc4NC(=O)C3C2)CC1 (stereo not shown) | Caenorhabditis elegans |  | N2 | 12.5 µM |  | median lifespan | 19 days
CC(C)C[C@@H](C=O)NC(=O)[C@H](CC(C)C)NC(=O)[C@H](CC(C)C)NC(=O)OCc1ccccc1 | Mus musculus | gene silencing, high-content imaging | LDR reporter GFP cells | 30 h, retest run 2 |  | Emax | 130%
CN1CCC(n2cnc(-c3ccc(F)cc3)c2-c2ccnc(Nc3ccccc3)n2)CC1 | Trypanosoma brucei |  |  | unit not given | reference: pEC50 T. brucei minus pTC50 HepG2 | selectivity | 2.1
N=C(N)c1ccc(OCCCCCOc2ccc(C(=N)N)cc2)cc1 | Trypanosoma brucei brucei |  | Lister 427, BALB/c mice, infection | ip, 4 mg/kg once at 2 dpi, 3 dpi |  | blood parasitaemia | < 250000 parasites/mL
O[C@H]1[C@H]2c3cc4c(cc3CN3CCC(=C[C@@H]1O)[C@H]23)OCO4 | Mus musculus | gene silencing, high-content imaging | LDR reporter GFP cells | retest run 1 |  | maximal activity | 64%
CC(=O)OC[C@@]1(C)[C@H]2CC[C@@H]3CN(Cc4ccc(C)cc4)[C@@H](C4=CCOC4=O)C[C@H]3[C@]2(C)CC[C@H]1OC(C)=O | Human coronavirus 229E | cytopathic effect | MRC5 | 25 µM, corrected for cytotoxicity |  | inhibition | 90.5%
CC(C)Cc1ccc(C(C)C(=O)O)cc1 (stereo not shown) | Lactobacillus acidophilus | cell survival |  | 100 µM, 24 h | reference: DMSO | inhibition | 73%
O=C1CN(c2nc(-c3ccccc3)c3cc(Cl)ccc3n2)c2ccccc2N1 | Mus musculus | gene silencing, high-content imaging | LDR reporter GFP cells | retest run 1 |  | maximal activity | 21%

Repeated from above:
SMILES | target or system | assay | test system | conditions | scale | measurement | value
CCc1nc2[nH]c(=O)n(O)c(=O)c2s1 | Digitaria adscendens |  |  | 750 g/ha, 21 days, post-emergence, glasshouse pot |  | growth inhibition | 0%
NS(=O)(=O)c1ccc(N/C=C2\C(=O)Nc3ccc4ncsc4c32)cc1 | Trypanosoma brucei |  |  | unit not given | reference: pEC50 T. brucei minus pTC50 HepG2 | selectivity | > 2.5
COC(=O)[C@@H](NCc1cc2ccccc2nc1OCc1ccccc1)C(C)C | Pseudomonas aeruginosa |  |  | 128 µg/mL, without pentamidine | reference: control | growth | 97.1%
